Results of several laboratories.
Lines come from different studies, so protocols differ. Several values in a cell are separate wells, animals, samples, runs or records.
Read-out: tubulin polymerisation
Action: inhibitor

| Structure (SMILES) | test | conditions | IC50 |
| --- | --- | --- | --- |
| COc1ccc2c(C(=O)c3cccc(OC(F)(F)F)c3)c(-c3ccc(OC)c(O)c3)[nH]c2c1 | absorbance | – | < 5000 nM |
| N#Cc1c(-c2ccc(Cl)c(Cl)c2)c(-c2ccc(Cl)c(Cl)c2)nn(CCO)c1=O | – | 20 min | 5800 nM |
| COc1ccc2c(NC(=O)CBr)c(C(=O)c3cc(OC)c(OC)c(OC)c3)oc2c1 | – | – | 2300 nM |
| COc1cc(OC)c(/C=N/NC(=O)c2ccc(-c3cc(OC)c(OC)c(OC)c3)nc2C)c(OC)c1 | – | – | 50.1 nM |
| COc1ccc(OC)c(CCc2cc(C#N)c(N)s2)c1 | absorbance | 20 min | 740 nM |
| COc1ccc(OC)c(NC(=O)c2cc(-c3c[nH]c4ccccc34)n[nH]2)c1 | absorbance | 20 min | 19000 nM and < 20000 nM |
| COc1ccc2c(NC(=O)CCl)c(C(=O)c3cc(OC)c(OC)c(OC)c3)oc2c1 | – | – | 2000 nM |
| COc1cc(-c2ccc(C(=O)N/N=C/c3ccncc3)c(C)n2)cc(OC)c1OC | – | – | 43.2 nM |
| CCn1c2ccccc2c2cc(C(O)c3cccc4ncccc34)ccc21 (stereo not shown) | – | – | 3200 nM |
| CCCCCCSc1nnc(-c2ccc(-c3cc(OC)c(OC)c(OC)c3)nc2C)o1 | – | – | 48.3 nM |
| CC(C)(C)c1ccc(NC(=O)c2cc(-c3c[nH]c4ccccc34)n[nH]2)cc1 | absorbance | 20 min | > 20000 nM |
| N#Cc1c(-c2ccc(Cl)c(Cl)c2)c(-c2ccc(Cl)c(Cl)c2)nn(CC(=O)O)c1=O | – | 20 min | 4200 nM |
| COc1cc(NC(=O)/C=C/c2c[nH]c3ccccc23)cc(OC)c1OC | absorbance | – | < 20000 nM |
| N#Cc1c(-c2ccccc2)c(-c2ccccc2)nn(CC(=O)O)c1=O | – | 20 min | 6200 nM |
| Cn1ccc2cc(-n3nnnc3-c3cc(Cl)nc(Cl)c3)ccc21 | absorbance | – | 2800 nM |
| COC(=O)c1cc(CCc2cc(OC)ccc2OC)ccc1O | absorbance | 20 min | 2000 nM |
| COc1ccc(/C=N/NC(=O)c2ccc(-c3cc(OC)c(OC)c(OC)c3)nc2C)cc1OC | – | – | 17.6 nM |
| O=C(/C=C/C(=O)c1ccc(F)cc1)Nc1ccccc1 | absorbance | – | < 5000 nM |
| COC(=O)c1cc(CCc2cc(OC)ccc2OC)sc1N | absorbance | 20 min | 1900 nM |

Excerpt of the above:
| Structure (SMILES) | test | conditions | IC50 |
| --- | --- | --- | --- |
| COc1ccc(OC)c(CCc2cc(C#N)c(N)s2)c1 | absorbance | 20 min | 740 nM |
| COc1ccc(OC)c(NC(=O)c2cc(-c3c[nH]c4ccccc34)n[nH]2)c1 | absorbance | 20 min | 19000 nM and < 20000 nM |
| COc1ccc2c(NC(=O)CCl)c(C(=O)c3cc(OC)c(OC)c(OC)c3)oc2c1 | – | – | 2000 nM |
